{"data": "Literature values, collected from citations in different studies", "note": "Each line is one published result; not all experiments were run side by side. “And” joins repeats or separate records; there may be more than shown.", "sequence of UniProt Q96NX5 (whole entry, looked up)": "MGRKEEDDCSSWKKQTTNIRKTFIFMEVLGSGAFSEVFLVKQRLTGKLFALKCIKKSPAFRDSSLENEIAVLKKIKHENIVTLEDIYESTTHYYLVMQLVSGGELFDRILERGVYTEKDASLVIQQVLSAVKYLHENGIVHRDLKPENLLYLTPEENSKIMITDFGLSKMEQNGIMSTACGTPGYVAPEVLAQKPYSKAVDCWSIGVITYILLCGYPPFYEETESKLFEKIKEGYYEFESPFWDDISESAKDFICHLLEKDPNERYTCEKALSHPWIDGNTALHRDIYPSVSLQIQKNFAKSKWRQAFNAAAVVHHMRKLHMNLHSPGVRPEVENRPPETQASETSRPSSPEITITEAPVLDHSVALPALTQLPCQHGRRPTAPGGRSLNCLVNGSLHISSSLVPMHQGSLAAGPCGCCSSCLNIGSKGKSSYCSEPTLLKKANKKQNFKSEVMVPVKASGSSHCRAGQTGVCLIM"}
{"Structure (SMILES)": "Cc1nc2c(Cl)cccn2c1NC(=O)c1ccc(-c2ccc(N(C)C)cc2)o1", "tested on": "NR4A2 (Nurr1)", "assay": "agonist, cell-based", "quantity": "EC50", "value": "90 nM"}
{"Structure (SMILES)": "FC(F)(F)c1ccc(Nc2nc(NCCN3CCOCC3)nc3sc(Nc4c(Cl)cccc4Cl)nc23)cc1", "tested on": "TRPV1", "assay": "calcium flux, antagonist", "system": "HEK293", "conditions": "with: capsaicin", "quantity": "IC50", "value": "39 nM"}
{"Structure (SMILES)": "CCCCC/C=C\\C[C@H](O)/C=C/C=C\\C/C=C\\CCCC(=O)O", "tested on": "GPR39", "conditions": "concentration not given", "quantity": "activity", "value": "no effect"}
{"Structure (SMILES)": "Oc1ccc(-c2nc(-c3ccncc3)c(-c3ccc(F)cc3)[nH]2)cc1", "tested on": "CSNK1G2", "assay": "kinase activity, inhibitor", "conditions": "0.5 µM", "quantity": "inhibition", "value": "8%"}
{"Structure (SMILES)": "CC1(C)S[C@@H]2[C@H](NC(=O)[C@H](N)c3ccccc3)C(=O)N2[C@H]1C(=O)O", "tested on": "Enterobacter cloacae", "system": "clinical isolate RKI-No_146/09", "quantity": "MIC", "value": "> 16 µg/mL"}
{"Structure (SMILES)": "CC(C)(C)CCc1nc(C(F)(F)F)ccc1CNC(=O)Nc1cccc2[nH]ncc12", "tested on": "TRPV1", "assay": "calcium flux, antagonist", "system": "HEK293", "conditions": "with: capsaicin", "quantity": "IC50", "value": "5 nM"}
{"Structure (SMILES)": "CCNS(=O)(=O)c1ccc(OC)cc1C1(O)CCN(Cc2cccc(Oc3ccccc3OC)c2)CC1", "tested on": "human CCR8 S110A mutant (TM3)", "assay": "IP accumulation, agonist", "quantity": "EC50", "value": "2 nM"}
{"Structure (SMILES)": "Nc1cc(C(F)(F)F)c(-c2nc(N3CCOCC3)nc(N3CCOCC3)n2)cn1", "tested on": "Calcium/calmodulin-dependent protein kinase type 1G (CAMK1G, Homo sapiens, UniProt Q96NX5)", "assay": "enzyme activity", "conditions": "10 µM", "how to read": "relative to: untreated", "quantity": "remaining activity", "value": "93%"}
{"Structure (SMILES)": "CC(C)Oc1ccc(-c2c[nH]cc2CN(C)CCN)cc1", "tested on": "PRMT9", "assay": "enzyme activity, inhibitor", "conditions": "concentration not given", "quantity": "activity", "value": "inactive"}
{"Structure (SMILES)": "CC(O)C(C)n1ncn(-c2ccc(N3CCN(c4ccc(OCC5COC(Cn6cncn6)(c6ccc(Cl)cc6Cl)O5)cc4)CC3)cc2)c1=O (stereo not shown)", "tested on": "human CYP3A4", "assay": "substrate, item: hydroxylation", "quantity": "Vmax", "value": "0.095 pmol/min/pmol CYP"}
{"Structure (SMILES)": "COc1ccccc1Oc1cccc(CN2CCC3(CC2)C(=O)NCN3CCc2ccccc2)c1", "tested on": "human CCR8 Y114A mutant (TM3)", "assay": "IP accumulation, agonist", "quantity": "EC50", "value": "42 nM"}
{"Structure (SMILES)": "COc1ccc(-c2noc(CC(=O)O)c2-c2ccc(OC)cc2)cc1", "tested on": "NR4A2 (Nurr1)", "assay": "cellular", "conditions": "concentration not given", "quantity": "activity", "value": "inactive"}
{"Structure (SMILES)": "CC(C)[C@H](CO)Nc1nc(Nc2cc(N)cc(Cl)c2)c2ncn(C(C)C)c2n1", "tested on": "CSNK1G2", "assay": "kinase activity, inhibitor", "conditions": "0.5 µM", "quantity": "inhibition", "value": "65%"}
{"Structure (SMILES)": "COc1ccccc1Oc1cccc(CN2CCC(O)(c3ccccc3C(=O)O)CC2)c1", "tested on": "human CCR8 F88A mutant (TM2)", "assay": "IP accumulation, agonist", "quantity": "EC50", "value": "251 nM"}
{"Structure (SMILES)": "Nc1ncnc2c1ncn2[C@@H]1O[C@H](COP(=O)(O)OP(=O)(O)OP(=O)(O)O)[C@@H](O)[C@H]1O", "tested on": "P2Y purinoceptor", "conditions": "reference compound", "quantity": "Hill coefficient", "value": 0.9}
{"Structure (SMILES)": "CCN(CC)CCCCNc1ncc2cc(-c3cc(OC)cc(OC)c3)c(NC(=O)NC(C)(C)C)nc2n1", "tested on": "PDGFRα", "assay": "inhibitor", "quantity": "IC50", "value": "> 1000 nM"}
{"Structure (SMILES)": "O=C(NCc1ccc(C(F)(F)F)nc1Oc1ccccc1)Nc1cccc2[nH]ncc12", "tested on": "TRPV1", "assay": "calcium flux, antagonist", "system": "HEK293", "conditions": "with: capsaicin", "quantity": "IC50", "value": "9 nM"}
{"Structure (SMILES)": "N=C(NCCCCC(N)C(N)=O)NCCCSC[C@H]1O[C@@H](n2cnc3c(N)ncnc32)[C@H](O)[C@@H]1O (stereo partly shown)", "tested on": "PRMT1", "assay": "enzyme activity, inhibitor", "how to read": "relative to: SET7/9 IC50 over PRMT1 IC50", "quantity": "selectivity ratio", "value": "≥ 33 fold"}
{"Structure (SMILES)": "O=C1NC(=O)c2c1c1c3ccccc3[nH]c1n1cncc21", "tested on": "CSNK1G3", "assay": "kinase activity, inhibitor", "conditions": "0.5 µM", "quantity": "inhibition", "value": "13%"}
{"Structure (SMILES)": "CN(c1cccnc1-c1ccc(C(=O)Nc2ccc(C(C)(C)C)cc2)cc1)S(C)(=O)=O", "tested on": "TRPV1", "assay": "calcium flux, antagonist", "system": "HEK293", "conditions": "with: capsaicin", "quantity": "IC50", "value": "39 nM"}
{"Structure (SMILES)": "COc1ccc(C[C@H](NC(=O)[C@H](C)NC(=O)CN2CCOCC2)C(=O)N[C@@H](Cc2ccccc2)C(=O)C2(C)CO2)cc1 (stereo in doubt)", "tested on": "immunoproteasome subunit LMP2 (β1i)", "assay": "enzyme activity, inhibitor", "conditions": "0.8 µM", "quantity": "inhibition", "value": "60 to 80%"}
{"Structure (SMILES)": "[Ca+2]", "tested on": "rod CNG channel", "assay": "cGMP-gated current", "system": "intact rod outer segments", "conditions": "with: fixed cGMP", "quantity": "K1/2 for Ca2+", "value": "~50 nM"}
{"Structure (SMILES)": "COc1ccc2nc([S@+]([O-])Cc3ncc(C)c(OC)c3C)[nH]c2c1", "tested on": "CYP2C19", "assay": "mechanism-based inhibitor", "quantity": "KI", "value": "1600 nM"}
{"Structure (SMILES)": "CC(C)(O/N=C(\\C(=O)N[C@@H]1C(=O)N2C(C(=O)[O-])=C(C[N+]3(CCNC(=O)c4ccc(O)c(O)c4Cl)CCCC3)CS[C@H]12)c1csc(N)n1)C(=O)O", "tested on": "KPC-33", "assay": "hydrolysis by enzyme, substrate", "quantity": "kcat", "value": "0.006 s⁻¹"}
{"Structure (SMILES)": "Oc1cc(O)cc(/C=C/c2ccc(O)c(O)c2)c1", "tested on": "SIRT5", "assay": "deacetylase activity, activator, fluorogenic peptide substrate", "conditions": "concentration not given", "how to read": "relative to: untreated", "quantity": "activation", "value": "≤ 2.5 fold"}
{"Structure (SMILES)": "CC(C)(O)c1cnc2ncc(-c3ccc(F)c(-c4c(F)cccc4C#N)c3)n2n1", "tested on": "rat GABAA benzodiazepine site", "system": "rat", "conditions": "oral, 1.0 mg/kg", "quantity": "receptor occupancy", "value": "87%"}
{"Structure (SMILES)": "CC(C)(C)n1nc(Cc2cccc3ccccc23)c2c(N)ncnc21", "tested on": "CSNK1G2", "assay": "kinase activity, inhibitor", "conditions": "0.5 µM", "quantity": "inhibition", "value": "-1%"}
{"Structure (SMILES)": "CCCCCCCC(=O)c1c(O)cc(O)cc1CC(=O)OCC", "tested on": "NR4A1", "assay": "cell-based", "quantity": "EC50", "value": "0.115 nM"}
{"Structure (SMILES)": "FC(F)(F)c1ccc(Nc2ccnc3nc(-c4ncccc4C(F)(F)F)cnc23)cc1", "tested on": "TRPV1", "assay": "calcium flux, antagonist", "system": "HEK293", "conditions": "with: capsaicin", "quantity": "IC50", "value": "0.23 nM"}
{"Structure (SMILES)": "CCCCCCCC(=O)CCc1ccc(O)c(OC)c1", "tested on": "SERCA2a", "assay": "activator", "conditions": "concentration not given", "how to read": "relative to: control", "quantity": "maximal SERCA2a activity increase", "value": "25 to 43%"}
{"Structure (SMILES)": "CC(=O)N1c2ccc(-c3ccc(C(=O)O)cc3)cc2[C@H](Nc2ccc(Cl)cc2)C[C@@H]1C", "tested on": "human BRD4", "how to read": "relative to: BD2 over BD1", "quantity": "selectivity ratio", "value": "~10 fold"}
{"Structure (SMILES)": "CCCCCCCCCCCC1=C(O)C(=O)C=C(O)C1=O", "tested on": "XIAP BIR3 domain", "quantity": "Kd", "value": "≤ 1000 nM"}
{"Structure (SMILES)": "O=C(NCc1ccc(Cl)c(Cl)c1)Nc1cccc2ccc(O)cc12", "tested on": "TRPV1", "assay": "calcium flux, antagonist", "system": "HEK293", "conditions": "with: capsaicin", "quantity": "IC50", "value": "15 nM"}
{"Structure (SMILES)": "Clc1ccc(C(c2c[nH]c3ccccc23)c2c[nH]c3ccccc23)cc1", "tested on": "NR4A2 (Nurr1)", "assay": "agonist", "quantity": "active concentration", "value": "7.5 µM and 15 µM"}
{"Structure (SMILES)": "COc1cccc(-c2cc(=O)c3ccccc3o2)c1N", "tested on": "CSNK1G2", "assay": "kinase activity, inhibitor", "conditions": "0.5 µM", "quantity": "inhibition", "value": "2%"}
{"Structure (SMILES)": "Cc1ccc(NC(=O)c2ccc(CN3CCNCC3)cc2)cc1Nc1nccc(-c2cccnc2)n1", "tested on": "human CYP2C8", "assay": "recombinant enzyme kinetics", "how to read": "relative to: CYP2C8 over CYP3A4", "quantity": "catalytic efficiency ratio", "value": "~15 fold"}
{"Structure (SMILES)": "CC(C)n1cnc2c(Nc3cccc(Cl)c3)nc(NCCO)nc21", "tested on": "CSNK1G3", "assay": "kinase activity, inhibitor", "conditions": "0.5 µM", "quantity": "inhibition", "value": "93%"}
{"Structure (SMILES)": "FC(F)(F)c1ccc(Nc2ncnc3nc(-c4ncccc4C(F)(F)F)ccc23)cc1", "tested on": "TRPV1", "assay": "calcium flux, antagonist", "system": "HEK293", "conditions": "with: capsaicin", "quantity": "IC50", "value": "0.83 nM"}
{"Structure (SMILES)": "COc1cc(Nc2c(C#N)cnc3cc(OCCCN4CCN(C)CC4)c(OC)cc23)c(Cl)cc1Cl", "tested on": "CSNK1G3", "assay": "kinase activity, inhibitor", "conditions": "0.5 µM", "quantity": "inhibition", "value": "2%"}
{"Structure (SMILES)": "O=C(Nc1nc2ccccc2[nH]1)c1ccccc1", "tested on": "TNFSF10", "conditions": "5 µM, PubChem AID 1443", "quantity": "response", "value": "62%"}
{"Structure (SMILES)": "COc1ccccc1Oc1cccc(CN2CCC(NC(=O)C3CC(=O)Nc4ccccc43)CC2)c1 (stereo not shown)", "tested on": "human CCR8 F84A mutant (TM2)", "assay": "IP accumulation, agonist", "quantity": "EC50", "value": "133 nM"}
{"Structure (SMILES)": "CCCCC/C=C\\C/C=C\\C/C=C\\C/C=C\\CCCC(=O)O", "tested on": "CYP4F3A (human)", "assay": "substrate", "system": "insect cell microsomes", "quantity": "kcat", "value": "0.192 s⁻¹"}
{"Structure (SMILES)": "COc1ccccc1Oc1cccc(CN2CCC(NC(=O)C(CCN3CCCC3)c3ccccc3)CC2)c1 (stereo not shown)", "tested on": "human CCR8", "assay": "IP accumulation, agonist", "quantity": "EC50", "value": "> 10000 nM"}
{"Structure (SMILES)": "COc1ccc(CNc2c(CO)cnc3c(C4CC4)cc(C#N)cc23)cc1Cl", "tested on": "PDE7", "how to read": "relative to: IC50 PDE7 over PDE5", "quantity": "selectivity ratio", "value": "> 10"}
{"Structure (SMILES)": "COc1ccc2c(c1)CCC(NC(=O)Nc1cccc3cnccc13)C2Cc1ccc(C#N)cc1 (stereo not shown)", "tested on": "TRPV1", "assay": "calcium flux, antagonist", "system": "HEK293", "conditions": "with: capsaicin", "quantity": "IC50", "value": "21 nM"}
{"Structure (SMILES)": "CNC(C)C1CCC(N)C(OC2C(N)CC(N)C(OC3OCC(C)(O)C(NC)C3O)C2O)O1 (stereo not shown)", "tested on": "Acinetobacter pittii", "system": "clinical isolate RKI-No_588/16", "quantity": "MIC", "value": "≤ 0.5 µg/mL"}
{"note": "Repeated from above:"}
{"Structure (SMILES)": "Cc1nc2c(Cl)cccn2c1NC(=O)c1ccc(-c2ccc(N(C)C)cc2)o1", "tested on": "NR4A2 (Nurr1)", "assay": "agonist, cell-based", "quantity": "EC50", "value": "90 nM"}
{"Structure (SMILES)": "FC(F)(F)c1ccc(Nc2nc(NCCN3CCOCC3)nc3sc(Nc4c(Cl)cccc4Cl)nc23)cc1", "tested on": "TRPV1", "assay": "calcium flux, antagonist", "system": "HEK293", "conditions": "with: capsaicin", "quantity": "IC50", "value": "39 nM"}
{"Structure (SMILES)": "CCCCC/C=C\\C[C@H](O)/C=C/C=C\\C/C=C\\CCCC(=O)O", "tested on": "GPR39", "conditions": "concentration not given", "quantity": "activity", "value": "no effect"}
